Results gathered from unrelated publications.
Each numbered part is a random draw from the data of one study; scales do not carry over between parts.

Study 1 — method: protein binding microarray; molecule type: double-stranded DNA, one strand shown; matrix: in vitro; tested at: not given; baseline: not given; reading: higher = stronger binding
Target: Histone acetyltransferase KAT6A, winged helix 2, GST fusion (KAT6A, Homo sapiens, UniProt Q92794, residues 85-181)
Notes: 8-mer, flanks averaged, mean of 2 arrays, mostly near background
Construct (chain): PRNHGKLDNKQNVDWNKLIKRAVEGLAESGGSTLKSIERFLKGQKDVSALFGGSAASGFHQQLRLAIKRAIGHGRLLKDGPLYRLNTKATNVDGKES
| Strand | E-score |
| --- | --- |
| CTGCACCA | 0.027 |
| CCTCATGA | 0.0213 |
| ATGGGGAC | 0.00484 |
| GTTTAGAA | 0.0629 |
| GACGGGTA | -0.209 |

Study 2 — method: protein-binding microarray; molecule type: double-stranded DNA, one strand shown; matrix: in vitro; tested at: 940 nM top; notes: 60-bp whole probe; with: salmon DNA 0.4 mg/ml; baseline: random background probes; reading: higher = stronger binding; constant ends, left off below: GCCTAGCAC … GTCTTGATTCGCTTGACGCTGCTG
Target: Interferon regulatory factor 5, full length, phosphomimetic (IRF5, Homo sapiens, UniProt Q13568-2, residues 1-514, S451D/S453D/S456D/S462D)
| Strand | fitted relative affinity [z-score] |
| --- | --- |
| TTAGGTCTCCTAATCCTTTAGTGCTAG | 0.228 |
| TCACCTTCCCCTCTAGGACTGTGCTAG | 0.434 |
| TAAGGACTGCTTTTCCTTTAGTGCTAG | -0.127 |
| GACGGACTCGGGTTTCGGGACGTGCTA | 2.04 |
| TTAGGTATCGACTTTCGCTTAGTGCTA | 5.44 |
| TGAGGTCTCCTACTGCTTTAGTGCTAG | -0.447 |

Study 3 — method: protein-binding microarray; molecule type: double-stranded DNA, one strand shown; matrix: in vitro; tested at: 0.8 µM; notes: whole 60-bp probe, no competitor; reading: higher = stronger binding
Target: Centromere-binding protein 1, full length, N-terminal tag (CBF1, Saccharomyces cerevisiae, UniProt P17106, residues 1-351)
UniProt P17106, sequence (whole entry, looked up): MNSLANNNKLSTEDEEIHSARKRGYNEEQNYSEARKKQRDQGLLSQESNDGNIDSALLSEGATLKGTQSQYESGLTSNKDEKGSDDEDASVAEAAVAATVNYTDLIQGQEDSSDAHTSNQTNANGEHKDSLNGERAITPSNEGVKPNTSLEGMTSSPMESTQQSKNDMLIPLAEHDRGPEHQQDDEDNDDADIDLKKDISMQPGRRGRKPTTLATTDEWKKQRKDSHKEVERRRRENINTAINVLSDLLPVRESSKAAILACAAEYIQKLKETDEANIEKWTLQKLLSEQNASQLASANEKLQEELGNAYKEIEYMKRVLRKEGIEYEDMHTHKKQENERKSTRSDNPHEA
| Strand | fluorescence intensity [a.u.] |
| --- | --- |
| CTAGATAGAATGCAATACATCATGTAGTTCTGTTTCGTCTTGATTCGCTTGACGCTGCTG | 483 |
| CTACTCAACACATCTCAGCTGATTGTTCCTTATTTCGTCTTGATTCGCTTGACGCTGCTG | 584 |
| GAATTGTCTTAGATGATCATTCCATTCTTTAGGTAGGTCTTGATTCGCTTGACGCTGCTG | 558 |
| GAATATTCTGTTGGTTGCACGTGGTTAGTGTTTTAGGTCTTGATTCGCTTGACGCTGCTG | 7160 |

Single results of other studies
| Substance | target | test | test system | conditions | how to read | endpoint | result |
| --- | --- | --- | --- | --- | --- | --- | --- |
| PhoQ, residues 284 288 289 292 302 303 SLKLQV | PhoP, residues 12 14 15 18 19 AQCLL (Escherichia coli, UniProt P23836) | Sort-seq, item: YFP reporter | E. coli | PhoQ-PhoP variant library, with: 10 µM Mg2+ | baseline: high Mg2+ state, higher = stronger signaling | fold induction | 2.39 |

A few entries again (study 1):
| Strand | E-score |
| --- | --- |
| CTGCACCA | 0.027 |
